Assay results gathered from unrelated publications.
Each numbered part is a random draw from the data of one study; scales do not carry over between parts. Several values in a cell are separate wells, animals, samples, runs or records.
Chain of UniProt P47898 (whole entry, looked up): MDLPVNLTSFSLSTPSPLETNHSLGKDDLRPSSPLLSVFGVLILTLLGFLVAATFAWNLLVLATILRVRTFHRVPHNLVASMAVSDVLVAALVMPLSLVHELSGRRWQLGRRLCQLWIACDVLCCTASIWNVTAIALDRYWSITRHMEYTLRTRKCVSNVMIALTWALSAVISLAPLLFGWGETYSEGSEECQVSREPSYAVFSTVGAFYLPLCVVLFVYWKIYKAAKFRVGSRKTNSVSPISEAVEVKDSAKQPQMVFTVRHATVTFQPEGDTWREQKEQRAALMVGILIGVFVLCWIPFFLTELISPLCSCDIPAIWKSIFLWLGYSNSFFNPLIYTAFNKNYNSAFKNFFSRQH

Series 1
Cell line: mouse MPNST tumor cells
Technique: high-content nuclear imaging
Refers to: cell number
Concentration: 10 µM
Time: 12 h
Setting: mean of 2 replicates
Baseline: plate mean
Reading: higher = more cells
Structure (SMILES)	nuclei count
Cc1c(Cl)cccc1Nc1ccccc1C(=O)O	0.158 z-score
CC(C)(C)NC(=O)[C@@H]1CN(Cc2cccnc2)CCN1C[C@@H](O)C[C@@H](Cc1ccccc1)C(=O)N[C@H]1c2ccccc2C[C@H]1O	1.61 z-score
O=C(NO)c1ccc2[nH]c(=O)c(CCCc3ccccc3)nc2c1	1.06 z-score
Cc1cnc(NC(=O)c2cc(S(=O)(=O)N(C)C)ccc2N2CCCC2)s1	-3.08 z-score
CC(=O)N(O)CCCCCNC(=O)CCC(=O)N(O)CCCCCNC(=O)CCC(=O)N(O)CCCCCN	-0.595 z-score
CCCCC1=NC2(CCCC2)C(=O)N1Cc1ccc(-c2ccccc2-c2nnn[nH]2)cc1	0.83 z-score and 0.0723 z-score
Cc1c(F)c(N2CCNC(C)C2)cc2c1c(=O)c(C(=O)O)cn2C1CC1 (stereo not drawn)	1.43 z-score
COc1ccc2nccc(NC(=O)c3cc([N+](=O)[O-])ccc3Cl)c2c1	-5.3 z-score
C#CC1(O)CCC2C3CCc4cc(OC)ccc4C3CCC21C (stereo not drawn)	0.279 z-score
CCC1NC(=O)c2cc(S(N)(=O)=O)c(Cl)cc2N1 (stereo not drawn)	1.01 z-score

Series 2
Target: Calcium/calmodulin-dependent protein kinase type II subunit alpha (CAMK2A, Homo sapiens, UniProt Q9UQM7)
Chain of UniProt Q9UQM7 (whole entry, looked up): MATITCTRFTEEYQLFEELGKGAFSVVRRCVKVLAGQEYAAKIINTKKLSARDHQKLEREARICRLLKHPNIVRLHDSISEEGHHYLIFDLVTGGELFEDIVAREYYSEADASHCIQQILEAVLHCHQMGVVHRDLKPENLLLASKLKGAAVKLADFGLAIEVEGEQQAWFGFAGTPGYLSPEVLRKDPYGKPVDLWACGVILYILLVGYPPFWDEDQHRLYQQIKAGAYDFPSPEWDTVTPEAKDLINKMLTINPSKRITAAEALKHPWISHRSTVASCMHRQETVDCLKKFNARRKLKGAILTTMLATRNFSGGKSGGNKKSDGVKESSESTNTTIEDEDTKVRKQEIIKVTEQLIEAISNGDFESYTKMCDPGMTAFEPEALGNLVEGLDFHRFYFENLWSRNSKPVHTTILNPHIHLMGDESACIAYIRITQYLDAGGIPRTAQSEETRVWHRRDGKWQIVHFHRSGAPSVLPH
Effect on: enzyme activity
Mode: inhibitor
Concentration: 10 µM
Compound	inhibition
O=c1c(O)c(-c2ccc(O)cc2)oc2cc(O)cc(O)c12	-7%
CC(C)=CCC[C@H](C)CC=O	-4%
CCNC(=O)CCC/C=C\C[C@@H]1[C@@H](/C=C/[C@@H](O)CCc2ccccc2)[C@H](O)C[C@@H]1O	-13%
COc1ccc(-c2cc(=O)c3c(O)cc(O)cc3o2)cc1-c1c(O)cc(O)c2c(=O)cc(-c3ccc(O)cc3)oc12	-20%

Series 3
Host: human
Sample: microsomes or S9
Concentration: 2 µM
Time: 0.5 h
Compound	remaining compound
CNc1cc(Cn2c(C(=O)c3cc(C)cc(Br)c3)c(C(C)C)c(=O)[nH]c2=O)cc(F)n1	7.83%
O=S(=O)(c1cccc2cccnc12)N1CCCC1c1noc(CO)n1 (stereo not drawn)	77.4%
COCc1nc2cc(-c3ccccc3CO)ccc2o1	23.7%
CCC(C)(CNC(=O)c1sc(-c2c(C)noc2C)nc1C)OC (stereo not drawn)	87.5%
CN(CC#N)C(=O)C1=C(c2ccccc2)OCCS1	59.7%
Cc1n[nH]c(O)c1C(c1ccc(F)cc1)c1c(C)n[nH]c1O	> 99.9%
CCC(c1nc2c3c(C)c(C)n(-c4cc(C)ccn4)c3ncn2n1)N1C(=O)c2ccccc2C1=O (stereo not drawn)	60.9%
COc1ccccc1N1C(=O)c2cc3ccccc3n2CC1(C)C(=O)NC1CCCCCCC1 (stereo not drawn)	0.562%
Cc1cc(S(=O)(=O)Nc2c[nH]c(=O)c(C)c2)sc1Cl	67.5%

Single results of other studies
Structure (SMILES)	target	effect on	concentration	endpoint	value
CC(C)CC(=O)N1CCc2nc(-c3ccc(Br)cc3)nc(N(C)Cc3ccccc3)c2C1	5-hydroxytryptamine receptor 5A (HTR5A, Homo sapiens, UniProt P47898)	ligand displacement	10 µM	inhibition	-10.3%

Some of these lines once more (series 3):
Compound	remaining compound
COCc1nc2cc(-c3ccccc3CO)ccc2o1	23.7%
CCC(C)(CNC(=O)c1sc(-c2c(C)noc2C)nc1C)OC (stereo not drawn)	87.5%
CN(CC#N)C(=O)C1=C(c2ccccc2)OCCS1	59.7%
Cc1n[nH]c(O)c1C(c1ccc(F)cc1)c1c(C)n[nH]c1O	> 99.9%
